# Assay results gathered from unrelated publications.
# Every numbered part comes from another study and shows a few of its results, in no order. Substitutions count along the parent as printed.

# Series 1
# Target: RNA binding protein fox-1 homolog 2, RRM domain, GST-SBP tag (RBFOX2, Homo sapiens, UniProt O43251-10, residues 100-194)
# Method: RNA Bind-n-Seq
# Molecule type: RNA
# Matrix: in vitro
# Tested at: 365 nM
# Setting: natural RNA segment, single round, ends assumed
# Reference: no-protein control
# Direction: higher = stronger binding
# Shared flanks, not repeated: GGGAGUUCUACAGUCCGACGAUC … UGGAAUUCUCGGGUGCCAA
# Target sequence (chain): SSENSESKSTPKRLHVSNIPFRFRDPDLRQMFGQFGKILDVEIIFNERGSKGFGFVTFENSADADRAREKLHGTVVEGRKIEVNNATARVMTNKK
Sequence,RBNS enrichment (R)
CAUACUAUGCAGUUUUUAUGUUUUCCAUAGUAAGUCAGAAAAUGCCUCCUAUUUCUGGCAUCAGAACUUUGCCAUUUGUCUACAGAAGACGAACCAGAGACAAAAUUACU,0.629
GGUGACCUCCGCAUCCCUCAGAGCUCAGAGGGUCCUCGCUGCCACCGGUCCCCCCCUAGCCCGUCAUCAGCCGGUGGCAGCUCCAUCUUCCAUUCCUGGUUUUAGGGCAG,1.07
UAUAGACAGAAAUAAUAAGCCACCCUGGGUGUAAACUUGAUUUUCUUUAUUGAGAUGUAUCAUGUAUUGAAUGAGUGAACCAGAAAAUUAGAAGAUGGUCAAAAAAAGUC,3.04
GCAUAGGAGAAAAAAGUAUGAUUUAAAGAUGUGCUAGGGGGAGGGAAAAAUGGGCAACUUUUACAUUUGACUACAUUAUAUACCUAUGUAUAAAAGUGCGGUGUAACCAU,1.24
GGCUUGCUCACUGGACACCCACAGAUCUGGCCCUUUGAAAGGCAGCCUUCAGAUGCCCAUCGUGUGAGAGGCGCUGCCUGUUGAUGAAGUGUGUGACCUUUUCUCCUGCU,0.236
CGGUGCCCCUGCACUACCUGCCCCACGAUCCGCUGCACCAGGAGCUGUCCUUUGGUGUGCCAUAUUCUCACAUGAUGCCACGGAGACUGAGCACCCAGAGAUACCGCCUG,0.701
GCAAGGGCACUCGUGGAGUAUGUGUCCUGGGUGAGGUGGCACCACACCGAAUGAAUGCAUCUCUGGGAGCUGGCACCACAACCCUGAUGUAUAGGCUGUGUUGGUUUAUG,0.73
AACGAAAUAACCUUUAUUGAAAUAAAGAUACUAUGCAAGAAAAUGUACAGUUGUCGAAGUGGAGAAAAUGAGGAUAUAUUCUUGCAGACGAGCUAUAGGUCAUACAUGAA,0.553
UGCAGUAAAAACAAAGGACAACCCAGCCAAGCAGAGGAAGAAGCUGCCGAAGGGGACAGACUCCACUGCCAGACGGCCAGCCGUUUGCUGUCCUGCCGCCCGGCUCAGUC,0.229
CCAACUUUCUAGUCACGCUGUUCUGUAUUCAGUCAGCCCACAAGAAUAUGCAAACUCCAUCUCAAAACUACUGUCUUUCACCUUCCCAAAUCUCUAUCCUCGUGUGCUUC,0.867
GUAUGAAACAAUGUACAAAUCAAUGUUUUGAAAAUAAUGAUCUCAGACUUUCUAAGUUAAAUUUUAAAAAUUUUGAUUGUUUGCCAUAUUGGGUGGGUUUACUCUUAGAA,13.3
CCUUUUCAAUCUGGAGCCCUUAAACCAUAAGUCCAAAUAUGAAUUAUUUGUGAACAGUUAAUGACCCAUAUUAGAAUUUUACAAUCUGGUGAACAAUCUGGGUAAAAGGC,0.373

# Series 2
# Target: Prothrombin, mature alpha-thrombin (F2, Homo sapiens, UniProt P00734)
# Method: aptamer microarray, sandwich
# Molecule type: DNA with 2'F-ANA
# Matrix: in vitro
# Tested at: 200 nM
# Setting: whole 15-mer aptamer, many near background
# Together with: Cy3 exosite-II aptamer, 400 nM
# Direction: higher = stronger binding
# Sequence: GGTTGGTGTGGTTGG
Modification,mean fluorescence intensity
2'F-ANA at 2 3 6 8 9 10 12 13 14 15,262 a.u.
2'F-ANA at 1 2 3 7 8 9 13,237 a.u.
2'F-ANA at 6 7 9 12 14,212 a.u.
2'F-ANA at 2 5 7 8 11 13 15,59.6 a.u.
2'F-ANA at 3 4 6 7 8 10 13 15,209 a.u.
2'F-ANA at 2 3 4 6 7 8 11 15,496 a.u.
2'F-ANA at 2 3 6 8 9 11 14 15,329 a.u.
2'F-ANA at 3 4 6 7 8 11 12 13 14 15,298 a.u.
2'F-ANA at 4 5 7 11 12,127 a.u.
2'F-ANA at 1 5 7 8 9 10 13 14 15,56.1 a.u.
2'F-ANA at 1 3 4 5 6 7 13 15,51.1 a.u.
2'F-ANA at 3 4 5 6 7 8 9 10 11 12 14,51 a.u.
2'F-ANA at 2 3 4 5 8 11 12 13 14,60.2 a.u.
2'F-ANA at 1 2 3 4 7 8 12 13 14,93.6 a.u.
2'F-ANA at 1 3 4 5 7 9 10 11 13 15,45.1 a.u.
2'F-ANA at 1 4 9 12 13 14 15,129 a.u.
2'F-ANA at 1 7 11 13 14 15,56.6 a.u.
2'F-ANA at 2 4 5 7 10 13 15,85.6 a.u.
2'F-ANA at 3 5 6 8 11 13 14 15,54.1 a.u.
2'F-ANA at 1 2 3 10 12,94 a.u.
2'F-ANA at 1 2 6 10 13 14,47 a.u.
2'F-ANA at 1 2 3 5 6 7 12 15,109 a.u.
2'F-ANA at 1 2 5 6 13 14,46 a.u.
2'F-ANA at 4 5 7 10 14,43 a.u.
2'F-ANA at 2 3 4 5 7 10 12 14 15,56.3 a.u.

# Series 3
# Target: CCND2, cyclin fold, Cln2 fusion (human)
# Method: yeast growth competition, sequencing
# Matrix: yeast
# Setting: strong parent motif
# Reference: not given
# Direction: higher = stronger binding
# Parent: INSM1 docking peptide (human); PKAIRKLHFEDEV
Variant,normalised enrichment score
D11W,1.38
I4M,1.46
H8R,1.67
L7N,-0.12
K6H,1.25
I4E,0.369
D11P,1.56
F9C,-0.000619
K2N,2.14
E12L,1.38
I4Y,0.202
K2C,2.65
L7S,0.12
R5L,0.685
R5M,1.11
E10R,0.853
F9E,0.343
R5A,0.326
L7F,0.174
L7A,-0.0822
K6L,0.915
H8K,2.55
I4N,0.683
K6A,1.77
F9W,0.814

# Series 4
# Target: Protein max, full length (MAX, Homo sapiens, UniProt P61244-2, residues 1-151)
# Method: protein-binding microarray
# Molecule type: double-stranded DNA, one strand shown
# Matrix: in vitro
# Tested at: not given
# Setting: k-mer, scored over probes, only values ≥0.25
# Direction: higher = stronger binding
Sequence,E-score
AGCGCGCG,0.28
AGCACGTC,0.287
CGTGAAAG,0.253
CCATGCAC,0.34
GCTCGTGA,0.268
CCAGCACG,0.351
CATGATGC,0.274
GTGGCACA,0.303
CCTCGAGG,0.279
ACGCATGC,0.439
CGTGCATC,0.374
ATGTGTCG,0.32
CATGAGCG,0.251
GCGTGAGA,0.331
CAAGCACA,0.253
GTCCACGA,0.279
ACGGCGTG,0.413
CAACATGG,0.302
GCATATGC,0.364
ACGTGATG,0.433
GTGTAGAA,0.276
GGGCATGA,0.277
CGCGTGCA,0.45
CACGTGAC,0.495

# Series 5
# Target: ABI1, truncated, D143A, DHFR fusion (Arabidopsis thaliana)
# Method: DHFR PCA, deep sequencing
# Matrix: yeast
# Setting: methotrexate growth selection, single substitutions
# Together with: (+)-ABA 0.39 µM
# Reference: wild-type fitted maximum
# Direction: higher = stronger binding
# Parent: PYL1, truncated, DHFR fusion (Arabidopsis thaliana); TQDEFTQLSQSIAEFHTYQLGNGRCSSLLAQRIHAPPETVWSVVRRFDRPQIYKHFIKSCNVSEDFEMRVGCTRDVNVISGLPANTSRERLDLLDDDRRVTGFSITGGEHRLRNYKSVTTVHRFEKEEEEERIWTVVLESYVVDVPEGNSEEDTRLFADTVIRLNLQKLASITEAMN
Variant,relative binding score [%]
L169V,-5.72
L20S,52.2
Q19M,18
S87Y,50
P146N,-14.2
A35I,-9.93
N165F,-15.9
L8P,-1.08
L82Q,11.1
R24D,-1.96
N149S,61.4
R88I,57.8
D65T,18.2
L20E,49.9
L112M,8.68
L28V,52.2
R99W,80.8
S27G,59.4
I57H,-7.74
Q7F,44.9
I105M,3.8
R111T,-11.5
G148H,-0.478

# Mixed results
Molecule,target,test,test system,setting,how to read,endpoint,value
"PhoQ, residues 284 288 289 292 302 303 SLANKL","PhoP, residues 12 14 15 18 19 GHCSL (Escherichia coli, UniProt P23836)","Sort-seq, refers to: YFP reporter",E. coli,"PhoQ-PhoP variant library, together with: 10 µM Mg2+","reference: high Mg2+ state, higher = stronger signaling",fold induction,16.9
